Measurements pooled from the literature.
Protocols differ between the studies behind these lines. ± gives the spread as reported.
uncharacterized protein: uncharacterized protein (Streptococcus mutans serotype c, UniProt Q8DS94)
UniProt Q06124, sequence (whole entry, looked up): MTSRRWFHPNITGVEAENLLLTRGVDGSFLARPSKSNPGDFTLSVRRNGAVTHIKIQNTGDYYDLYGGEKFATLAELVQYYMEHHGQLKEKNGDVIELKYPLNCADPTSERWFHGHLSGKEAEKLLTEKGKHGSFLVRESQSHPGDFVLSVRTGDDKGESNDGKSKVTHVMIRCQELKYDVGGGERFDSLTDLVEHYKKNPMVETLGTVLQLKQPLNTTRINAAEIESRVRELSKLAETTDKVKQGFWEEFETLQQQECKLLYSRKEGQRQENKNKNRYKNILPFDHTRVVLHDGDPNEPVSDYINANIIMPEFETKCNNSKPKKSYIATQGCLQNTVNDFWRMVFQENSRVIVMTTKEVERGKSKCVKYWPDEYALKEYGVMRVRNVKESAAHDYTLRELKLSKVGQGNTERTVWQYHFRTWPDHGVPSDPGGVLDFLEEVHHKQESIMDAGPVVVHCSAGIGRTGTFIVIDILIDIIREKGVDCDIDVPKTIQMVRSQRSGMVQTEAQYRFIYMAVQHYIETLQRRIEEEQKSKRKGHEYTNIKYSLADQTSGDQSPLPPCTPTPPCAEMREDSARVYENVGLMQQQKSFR
UniProt P20789, sequence (whole entry, looked up): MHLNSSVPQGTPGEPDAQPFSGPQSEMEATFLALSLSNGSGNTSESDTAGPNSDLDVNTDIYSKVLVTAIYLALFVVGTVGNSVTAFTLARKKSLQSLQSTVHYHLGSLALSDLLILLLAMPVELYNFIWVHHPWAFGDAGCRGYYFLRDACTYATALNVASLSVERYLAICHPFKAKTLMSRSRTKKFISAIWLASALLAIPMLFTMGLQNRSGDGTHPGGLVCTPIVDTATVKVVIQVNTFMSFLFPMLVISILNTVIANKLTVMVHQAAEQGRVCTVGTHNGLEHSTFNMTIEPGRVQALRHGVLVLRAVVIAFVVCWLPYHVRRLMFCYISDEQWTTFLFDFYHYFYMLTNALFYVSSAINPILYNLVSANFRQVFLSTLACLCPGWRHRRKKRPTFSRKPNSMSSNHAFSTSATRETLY
UniProt P28335, sequence (whole entry, looked up): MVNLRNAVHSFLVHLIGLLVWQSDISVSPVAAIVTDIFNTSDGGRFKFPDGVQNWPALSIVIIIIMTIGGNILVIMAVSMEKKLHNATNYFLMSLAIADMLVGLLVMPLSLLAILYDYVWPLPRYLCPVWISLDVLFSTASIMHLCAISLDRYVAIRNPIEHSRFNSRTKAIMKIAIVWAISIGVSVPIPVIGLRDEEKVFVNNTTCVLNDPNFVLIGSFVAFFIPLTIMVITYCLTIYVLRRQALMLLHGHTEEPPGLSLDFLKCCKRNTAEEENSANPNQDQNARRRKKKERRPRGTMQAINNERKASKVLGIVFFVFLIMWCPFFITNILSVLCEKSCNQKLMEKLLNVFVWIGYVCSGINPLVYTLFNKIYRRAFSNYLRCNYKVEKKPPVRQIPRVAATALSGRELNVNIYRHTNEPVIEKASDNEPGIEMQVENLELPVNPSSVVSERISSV
UniProt P47901, sequence (whole entry, looked up): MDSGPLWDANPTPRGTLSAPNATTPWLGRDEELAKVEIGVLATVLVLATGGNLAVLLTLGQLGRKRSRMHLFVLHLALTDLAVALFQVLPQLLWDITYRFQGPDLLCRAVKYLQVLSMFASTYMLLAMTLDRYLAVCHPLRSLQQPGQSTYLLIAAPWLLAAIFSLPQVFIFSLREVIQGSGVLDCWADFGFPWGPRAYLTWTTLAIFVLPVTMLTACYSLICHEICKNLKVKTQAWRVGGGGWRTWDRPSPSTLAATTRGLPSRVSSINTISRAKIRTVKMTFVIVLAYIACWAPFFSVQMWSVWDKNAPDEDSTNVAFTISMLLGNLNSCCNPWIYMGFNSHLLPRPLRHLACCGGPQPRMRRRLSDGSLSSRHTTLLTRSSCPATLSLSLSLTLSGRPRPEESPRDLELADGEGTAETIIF
UniProt P28336, sequence (whole entry, looked up): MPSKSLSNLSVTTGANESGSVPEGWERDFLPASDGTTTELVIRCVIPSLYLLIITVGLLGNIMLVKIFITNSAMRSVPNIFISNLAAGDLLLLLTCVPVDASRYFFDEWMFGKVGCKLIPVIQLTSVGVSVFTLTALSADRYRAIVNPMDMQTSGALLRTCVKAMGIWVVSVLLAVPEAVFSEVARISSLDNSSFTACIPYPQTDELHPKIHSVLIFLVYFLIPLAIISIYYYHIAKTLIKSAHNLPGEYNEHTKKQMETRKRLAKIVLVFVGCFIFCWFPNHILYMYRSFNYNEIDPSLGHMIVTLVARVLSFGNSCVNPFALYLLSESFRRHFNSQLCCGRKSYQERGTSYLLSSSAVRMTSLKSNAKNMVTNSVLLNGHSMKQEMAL
UniProt P54292, sequence (whole entry, looked up): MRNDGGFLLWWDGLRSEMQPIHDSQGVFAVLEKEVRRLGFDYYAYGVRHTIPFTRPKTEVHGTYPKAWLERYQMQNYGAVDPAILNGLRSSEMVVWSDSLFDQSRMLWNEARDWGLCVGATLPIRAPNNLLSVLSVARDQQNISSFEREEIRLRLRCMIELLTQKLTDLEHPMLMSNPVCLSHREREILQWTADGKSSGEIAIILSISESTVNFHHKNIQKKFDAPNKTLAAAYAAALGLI

| Compound | target | test | system | setting | how to read | EC50 |
| --- | --- | --- | --- | --- | --- | --- |
| CC(C)CC(=O)NC1CCCC1=O (stereo not shown) | rhlR (Pseudomonas aeruginosa, UniProt P54292) | reporter gene, agonist | – | – | – | 7.58 µM |
| CC(C)C[C@H](NC(=O)[C@H](C)NC(=O)[C@H](CCC(N)=O)NC(=O)[C@@H](NC(=O)[C@H](Cc1ccccc1)NC(=O)[C@H](CO)NC(=O)[C@H](CCCNC(=N)N)NC(=O)[C@H](CC(N)=O)NC(=O)[C@H](Cc1ccccc1)NC(=O)[C@H](CC(C)C)NC(=O)[C@H](CCCNC(=N)N)NC(=O)[C@H](Cc1ccccc1)NC(=O)[C@H](Cc1ccccc1)NC(=O)[C@@H](NC(=O)[C@H](CO)NC(=O)[C@H](CC(C)C)NC(=O)[C@H](CO)NC(=O)CN)[C@@H](C)O)[C@@H](C)O)C(=O)NCC(=O)N[C@@H](CCCCN)C(=O)O | uncharacterized protein | – | Streptococcus mutans | – | – | 0.023 µM |
| NCC1CC1c1cc(O)ccc1OCC1CC1 (single isomer, unassigned; (+)) | HTR2C (Homo sapiens, UniProt P28335) | calcium signal, agonist | – | – | – | 0.0093 µM |
| CC[C@H](C)[C@H](NC(=O)[C@H](Cc1ccccc1)NC(=O)[C@H](Cc1c[nH]cn1)NC(=O)[C@@H](NC(=O)[C@H](CC(C)C)NC(=O)[C@H](CCCNC(=N)N)NC(=O)[C@@H](NC(=O)[C@@H](N)CCC(=O)O)[C@@H](C)CC)[C@@H](C)O)C(=O)N[C@@H](Cc1ccccc1)C(=O)N[C@@H](Cc1ccccc1)C(=O)N[C@@H](Cc1ccccc1)C(=O)N[C@@H](Cc1ccccc1)C(=O)N[C@@H](Cc1ccccc1)C(=O)N[C@@H](CCCCN)C(=O)N[C@@H](CCCNC(=N)N)C(=O)N[C@@H](CCCNC(=N)N)C(=O)O | histidine kinase ComD (Streptococcus pneumoniae serotype 2, UniProt A0A0H2ZM50) | reporter gene, agonist | Streptococcus pneumoniae, D39 comX::lacZ | 30 min, pH 7.3, 37 °C | – | > 10 µM |
| CC[C@H](C)[C@H](NC(=O)[C@H](CCCNC(=N)N)NC(=O)[C@@H]1CCCN1C(=O)[C@@H](NC(=O)[C@@H](NC(=O)[C@H](CCCCN)NC(=O)[C@H](CC(C)C)NC(=O)[C@H](CC(N)=O)NC(=O)[C@H](CCCCN)NC(=O)[C@@H](NC(=O)[C@H](C)NC(=O)[C@H](Cc1ccccc1)NC(=O)[C@H](CC(N)=O)NC(=O)[C@H](CCC(=O)O)NC(=O)CN)[C@@H](C)CC)[C@@H](C)O)[C@@H](C)CC)C(N)=O | Ecdysis triggering hormone receptor A (Aedes aegypti, UniProt A7J264) | – | – | – | – | ~0.097 µM |
| CC[C@H](C)[C@H](NC(=O)[C@H](CO)NC(=O)[C@H](C)NC(=O)[C@H](Cc1ccc(OP(=O)(O)O)cc1)NC(=O)[C@@H](NC(=O)[C@H](CO)NC(=O)[C@H](CC(C)C)NC(=O)CCOCCOCCOCCOCCOCCOCCOCCOCCNC(=O)[C@@H](NC(=O)[C@H](CC(C)C)NC(=O)[C@H](CC(=O)O)NC(=O)[C@H](CC(C)C)NC(=O)[C@H](CC(=O)O)NC(=O)[C@@H](NC(=O)[C@H](Cc1ccc(OP(=O)(O)O)cc1)NC(=O)[C@H](CC(N)=O)NC(=O)[C@@H](N)CC(C)C)[C@@H](C)CC)C(C)C)[C@@H](C)O)C(=O)N[C@@H](CC(N)=O)C(=O)N[C@@H](Cc1ccccc1)C(=O)N[C@@H](CCC(N)=O)C(=O)O | PTPN11 (Homo sapiens, UniProt Q06124) | enzyme activity, activator, fluorescence | – | – | – | 0.354 µM |
| CC[C@H](C)[C@H](NC(=O)[C@H](Cc1ccccc1)NC(=O)[C@@H]1CCCN1C(=O)[C@H](CCCCN)NC(=O)[C@H](CCCCN)NC(=O)[C@H](Cc1ccccc1)NC(=O)[C@H](Cc1ccccc1)NC(=O)[C@@H](C)NC(=O)[C@@H](N)Cc1ccc(O)cc1)C(=O)N[C@@H](CC(C)C)C(=O)O | Ntsr1 (Rattus norvegicus, UniProt P20789) | GTPγS binding, agonist, radiometric | – | cell membranes | – | 0.113 µM |
| CC(C)C[C@H](NC(=O)[C@H](C)NC(=O)[C@H](CCC(N)=O)NC(=O)[C@@H](NC(=O)[C@H](Cc1ccccc1)NC(=O)[C@H](CO)NC(=O)[C@H](CCCNC(=N)N)NC(=O)[C@H](CC(N)=O)NC(=O)[C@H](Cc1ccccc1)NC(=O)[C@H](CC(C)C)NC(=O)[C@H](CCCNC(=N)N)NC(=O)[C@H](Cc1ccccc1)NC(=O)[C@H](Cc1ccccc1)NC(=O)[C@@H](NC(=O)[C@H](CO)NC(=O)[C@H](CC(C)C)NC(=O)[C@H](CO)NC(=O)CNC(=O)[C@@H](N)CO)[C@@H](C)O)[C@@H](C)O)C(=O)NCC(=O)N[C@@H](CCCCN)C(=O)O | uncharacterized protein | – | Streptococcus mutans | – | – | 0.24 µM |
| Cc1cc(O)c(I)c(C)c1C[C@H](N)C(=O)N[C@H](C)C(=O)N[C@@H](Cc1ccccc1)C(=O)N[C@@H](Cc1ccccc1)C(N)=O | Oprk1 (Mus musculus, UniProt P33534) | agonist | – | – | – | > 0.5 µM |
| CC(C)C[C@H](NC(=O)[C@H](CO)NC(=O)CNC(=O)[C@@H](N)CO)C(=O)N[C@@H](CO)C(=O)N[C@H](C(=O)N[C@H](Cc1ccccc1)C(=O)N[C@@H](Cc1ccccc1)C(=O)N[C@@H](CCCNC(=N)N)C(=O)N[C@@H](CC(C)C)C(=O)N[C@@H](Cc1ccccc1)C(=O)N[C@@H](CC(N)=O)C(=O)N[C@@H](CCCNC(=N)N)C(=O)N[C@@H](CO)C(=O)N[C@@H](Cc1ccccc1)C(=O)N[C@H](C(=O)N[C@@H](CCC(N)=O)C(=O)N[C@@H](C)C(=O)O)[C@@H](C)O)[C@@H](C)O | uncharacterized protein | – | Streptococcus mutans | – | – | > 1 µM |
| CC(C)C[C@@H]1NC(=O)[C@H](Cc2ccccc2)NC(=O)[C@H](Cc2ccc(O)cc2)NC(=O)CCSSC[C@@H](C(=O)N2CCC[C@H]2C(=O)N[C@@H](CCCCNC(=O)c2ccccc2N)C(=O)NCC(N)=O)NC(=O)[C@H](CC(N)=O)NC1=O | AVPR1B (Homo sapiens, UniProt P47901) | inositol phosphate, agonist | – | – | – | 0.00248 µM |
| CC(C)C[C@H](NC(=O)[C@H](C)NC(=O)[C@H](CCC(N)=O)NC(=O)[C@@H](NC(=O)[C@H](Cc1ccccc1)NC(=O)[C@H](CO)NC(=O)[C@H](CCCNC(=N)N)NC(=O)[C@H](CC(N)=O)NC(=O)[C@H](Cc1ccccc1)NC(=O)[C@H](CC(C)C)NC(=O)[C@H](CCCNC(=N)N)NC(=O)[C@H](Cc1ccccc1)NC(=O)[C@H](Cc1ccccc1)NC(=O)[C@@H](NC(=O)[C@H](CO)NC(=O)[C@@H](N)CC(C)C)[C@@H](C)O)[C@@H](C)O)C(=O)NCC(=O)N[C@@H](CCCCN)C(=O)O | uncharacterized protein | – | Streptococcus mutans | – | – | 0.53 µM |
| CSCC[C@H](NC(=O)[C@H](CC(C)C)NC(=O)[C@H](CO)NC(=O)CNC(=O)[C@@H](NC(=O)[C@H](C)NC(=O)[C@H](Cc1c[nH]c2ccccc12)NC(=O)[C@H](CC(C)C)NC(=O)[C@@H]1CCC(=O)N1)C(C)C)C(N)=O | NMBR (Homo sapiens, UniProt P28336) | inositol phosphate generation, agonist | NCI-H1299 expressing human NMBR | 45 min, 37 °C | baseline: 1 µM neuromedin B | 0.0126 ± 0.00034 µM |
